# Measurements pooled from the literature.
# Lines come from different studies, so protocols differ. Numbers after ± are the reported error.
# AR: Androgen receptor (AR, Homo sapiens, UniProt P10275)
# Chain of UniProt P10275 (whole entry, unmodified, looked up): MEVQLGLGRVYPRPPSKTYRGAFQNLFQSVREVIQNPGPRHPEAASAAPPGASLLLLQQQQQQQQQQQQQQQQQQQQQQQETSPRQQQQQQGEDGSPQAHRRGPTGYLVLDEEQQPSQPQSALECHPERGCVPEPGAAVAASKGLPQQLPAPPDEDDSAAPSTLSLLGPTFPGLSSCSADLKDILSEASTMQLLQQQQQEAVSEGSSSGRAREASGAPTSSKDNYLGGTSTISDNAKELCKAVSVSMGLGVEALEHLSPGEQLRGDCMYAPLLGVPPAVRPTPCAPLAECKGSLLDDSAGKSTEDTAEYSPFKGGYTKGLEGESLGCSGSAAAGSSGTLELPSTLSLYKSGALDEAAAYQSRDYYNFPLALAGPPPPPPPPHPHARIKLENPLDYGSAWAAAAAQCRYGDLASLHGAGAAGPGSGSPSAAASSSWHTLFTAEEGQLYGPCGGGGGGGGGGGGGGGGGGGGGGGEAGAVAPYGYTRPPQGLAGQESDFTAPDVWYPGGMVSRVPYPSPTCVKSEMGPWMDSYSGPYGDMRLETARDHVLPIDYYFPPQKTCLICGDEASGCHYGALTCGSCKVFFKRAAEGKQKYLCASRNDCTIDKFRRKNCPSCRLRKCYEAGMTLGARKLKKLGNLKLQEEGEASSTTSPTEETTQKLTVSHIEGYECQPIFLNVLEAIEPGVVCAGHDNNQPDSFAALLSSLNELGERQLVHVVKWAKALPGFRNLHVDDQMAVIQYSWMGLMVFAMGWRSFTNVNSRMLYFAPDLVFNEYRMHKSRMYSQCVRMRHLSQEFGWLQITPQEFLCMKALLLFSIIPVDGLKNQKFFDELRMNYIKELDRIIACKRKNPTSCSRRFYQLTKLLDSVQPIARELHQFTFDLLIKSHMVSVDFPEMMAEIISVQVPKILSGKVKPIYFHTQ
Structure (SMILES),target,test,test system,setting,endpoint,result
CC1(C)NC(=O)N(c2ccc(F)c(C(F)(F)F)c2)C1=O,AR,"transcriptional activity, antagonist, luciferase reporter",LAPC4,"24 h, with: 0.3 nM DHT",IC50,7.7 ± 4.1 µM
Oc1ccc(-c2ccc(Cl)cc2)c(Cl)c1,AR,"reporter gene, antagonist",,"24 h, with: DHT 2 nM",IC50,0.7 µM
COc1ncccc1-c1cnn2ccc(N3CCN(C(=O)OC(C)C)CC3)nc12,AR,liability screen,,,IC50,> 150 µM
Oc1cc(Cl)cc(-c2cccc(Cl)c2)c1,AR,"reporter gene, antagonist",,"24 h, with: DHT 2 nM",IC50,1.6 µM
O=[N+]([O-])c1cc([N+](=O)[O-])c2ccccc2c1,"Androgen receptor (AR, Homo sapiens, UniProt P10275, Q868H)",antagonist,,with: R1881 2 nM,IC50,17.4 µM
C[C@]12CC[C@H]3[C@@H](CCC4=CC(=O)[C@H](O)C[C@@]43C)[C@@H]1CC[C@@H]2O,AR,cell-based,,,EC50,5.6 µM
C[C@@H]1[C@@H](c2ccc(Cl)cc2)SC(=O)N1C(=O)NC1CCCCC1,AR,"reporter gene, agonist",yeast androgen screen,,EC50,> 100 µM
Oc1ccc(-c2cc(Cl)ccc2Cl)c(Cl)c1,AR,"reporter gene, antagonist",,"24 h, with: DHT 2 nM",IC50,3.9 µM
CCCC1COC(Cn2cncn2)(c2ccc(Cl)cc2Cl)O1 (stereo not shown),AR,,human cells,,IC50,8.22 µM
COC(=O)N(C(=O)N1COC2(C(=O)OC)Cc3cc(Cl)ccc3C2=N1)c1ccc(OC(F)(F)F)cc1 (racemic),AR,"reporter gene, agonist",yeast androgen screen,,EC50,> 100 µM
COc1cc(Nc2ncc(F)c(Nc3ccc4c(n3)NC(=O)C(C)(C)O4)n2)cc(OC)c1OC,AR,,,,IC50,> 10 µM
C[C@]12C[C@H](O)[C@H]3[C@@H](CCC4=CC(=O)CC[C@@]43C)[C@@H]1CC[C@@H]2O,AR,cell-based,,,EC50,30 µM
Clc1ccc(-c2ccccc2Cl)cc1,AR,"reporter gene, antagonist",,"24 h, with: DHT 2 nM",IC50,0.9 µM

# A few entries again:
Structure (SMILES),target,test,test system,setting,endpoint,result
Clc1ccc(-c2ccccc2Cl)cc1,AR,"reporter gene, antagonist",,"24 h, with: DHT 2 nM",IC50,0.9 µM
